Measurements from different studies.
Lines come from different studies, so protocols differ. ± marks the error that the study gave.
polA D424A: polA fragment D424A (Escherichia coli)
B1: enzyme (Streptomyces filamentosus, UniProt A0ABY4UVI6); chain MEHRIDADLLIPGAGEPTVNGSVVHADGRIRFAGPTAELPREHRALEPTRVATLLPGLWDCHVHFAGIRGRVSTEELMLTPETLAVVRSVKDAETALRAGFTSVRDMGGHGCVLAEAVREGTFTGPNIYSANQVIGQTGGHSDAHRLPYRWVTDPCRSGGTLRIADGVDECVRAVRLQLRAGAELIKICTSGGVLSEVDNPVHQQYRSEELNAIVTEAARADRVVAAHCHGRAGILAAIDAGCHTVEHGTEIDERTADLMAERGMTLVPTRTIYEAFRQDVAALPPAWRDRFALMAERHLTAIGIAHRAGVTIALGTDLGTSDRGGPLSWGGHGSEFAHLVSAGLSPLEAIKAATAHGPGTLGPRAPRSGRLEAGYDADLLAVDGNPLADITVLADPDRITRVWKSGEPVPSG
B2: protein (Thermotoga neapolitana, UniProt B9K712); chain MKMLYDLAKKRKTVRRFKKEKPPLEDLIYSLKVANEAPSGMNAQPWRFLIVEDEKLKGQIRRVCERSEKTFYENVRGRLKEWLDEKRFTWRKPFLKEAPYLLLVFSEKSAPYSRESVWLAVGYLLLALEEKGLGSVPYTPPDFREVEKLVNTPSELRLEVILPVGYPDDPKPKYPRNEVIVRYNTF
B3: DTYMK (Homo sapiens, UniProt P23919); chain MAARRGALIVLEGVDRAGKSTQSRKLVEALCAAGHRAELLRFPERSTEIGKLLSSYLQKKSDVEDHSVHLLFSANRWEQVPLIKEKLSQGVTLVVDRYAFSGVAFTGAKENFSLDWCKQPDVGLPKPDLVLFLQLQLADAAKRGAFGHERYENGAFQERALRCFHQLMKDTTLNWKMVDASKSIEAVHEDIRVLSEDAIRTATEKPLGELWK
B4: genB3 (Micromonospora echinospora, UniProt Q2MG50); chain MDSANLTNRGLVERARRVTAAENYDIGTRFSAMIQSGEGAWLTDVEGNRYVDLTASSGTIILGHRNQAVTEAITRQIRDFGTAFASTLSVPRVELAERLCERYECAEKVVFHKTGSEGTAMAARLARAATGRELILSCGYHGWHEWQLAGETFGYQQTTGVVGFGYNEKALAKMLEAFGNEVAGVLISPELLYFDVEFYQRMYALCARYDVPFMMDEVYTGFRAGPKGVHGLGVPADVVVVSKGLANGHSLAAVMGRRDIIDAYDVSGIQGTYTREVPPMAAAMAVLDVLDTPGVYEHAEAMGRRLADGMREILTGEGIPNWVGGPALMFDTVLPNDDLGWEIYKTAHDFGVYFEDSGTQLVTTAFDEAAVDHALTAFRKATRQVIADRPDIAPTSGGELTEERKLDFAEEAFGGLLRDDERTNALIDETIEKVVNRDRSIKPVLIPAQN
B5: PPIP5K2 (Homo sapiens, UniProt O43314); chain MSEAPRFFVGPEDTEINPGNYRHFFHHADEDDEEEDDSPPERQIVVGICSMAKKSKSKPMKEILERISLFKYITVVVFEEEVILNEPVENWPLCDCLISFHSKGFPLDKAVAYAKLRNPFVINDLNMQYLIQDRREVYSILQAEGILLPRYAILNRDPNNPKECNLIEGEDHVEVNGEVFQKPFVEKPVSAEDHNVYIYYPTSAGGGSQRLFRKIGSRSSVYSPESNVRKTGSYIYEEFMPTDGTDVKVYTVGPDYAHAEARKSPALDGKVERDSEGKEVRYPVILNAREKLIAWKVCLAFKQTVCGFDLLRANGQSYVCDVNGFSFVKNSMKYYDDCAKILGNIVMRELAPQFHIPWSIPLEAED
B6: enzyme (UniProt Q53796); chain MTEHPRAHTAHLRTARLELTPLDPAADARHLHHAYGDEEVMRWWTRPACADPAETERYLTSCAAAPGARLWTIRAPDGTVPGMAGLLGGTDVPGLTWLLRRDSWGHGYATEAAAAVVGHALEDGGLDRVEAWIEAGNRRSLAVAARVGLTERARLAQHYPHRPGPHEMVVLGKARAEEPLTTLAVITELPVRDVAATLRLVEAALGARTAFAIGDPPEFAEAALTPWSAGPRFRLAAVPGPGPVEPVRLHLDAAGTADSLHRRAVDAGARVDGPPVRRPWGRSEFVITLPEGHELTVSAPV
B7: curN (Lyngbya majuscula, UniProt Q6DND9); chain AGVPVAGRAQSQPPLQLPISSEFPFAKRTVEVEGATIAYVDEGSGQPVLFLHGNPTSSYLWRNIIPYVVAAGYRAVAPDLIGMGDSAKPDIEYRLQDHVAYMDGFIDALGLDDMVLVIHDWGSVIGMRHARLNPDRVAAVAFMEALVPPALPMPSYEAMGPQLGPLFRDLRTADVGEKMVLDGNFFVETILPEMGVVRSLSEAEMAAYRAPFPTRQSRLPTLQWPREVPIGGEPAFAEAEVLKNGEWLMASPIPKLLFHAEPGALAPKPVVDYLSENVPNLEVRFVGAGTHFLQEDHPHLIGQGIADWLRRNKPHAS
Sequence of UniProt Q6PIY7 (whole entry, looked up): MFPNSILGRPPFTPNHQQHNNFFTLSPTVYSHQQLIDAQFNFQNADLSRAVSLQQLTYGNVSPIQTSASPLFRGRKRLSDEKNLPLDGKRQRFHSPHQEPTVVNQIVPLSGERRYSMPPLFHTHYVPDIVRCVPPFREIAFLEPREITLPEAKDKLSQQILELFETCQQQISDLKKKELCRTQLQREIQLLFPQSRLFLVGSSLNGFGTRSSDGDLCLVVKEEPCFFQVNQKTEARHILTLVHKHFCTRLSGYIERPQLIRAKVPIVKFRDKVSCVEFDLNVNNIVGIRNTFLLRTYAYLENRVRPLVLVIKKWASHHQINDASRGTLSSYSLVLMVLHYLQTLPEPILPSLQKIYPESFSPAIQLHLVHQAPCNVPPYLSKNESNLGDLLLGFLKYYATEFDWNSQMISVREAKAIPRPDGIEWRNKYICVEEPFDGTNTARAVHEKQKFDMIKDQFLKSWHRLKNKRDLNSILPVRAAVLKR

| Substance | target or system | test | test system | setting | scale | measurement | value |
| --- | --- | --- | --- | --- | --- | --- | --- |
| CYP2C9 (Homo sapiens, UniProt P11712) | COc1ccc2c(c1)C(C)(C)C1=C(Cl)C(=O)C(Cl)=CC1=N2 | steady-state kinetics |  | pH 7.4, 37 °C |  | kcat | 0.0218 s⁻¹ |
| B1 (enzyme) | CC(C)C[C@H](NC(=O)c1cc(O)cc(-c2ccccn2)n1)C(=O)O | steady-state kinetics |  | pH 8, 30 °C |  | kcat | 0.0325 ± 0.000833 s⁻¹ |
| B2 (protein) | N[C@@H](Cc1ccc(O)c(I)c1)C(=O)O | steady-state kinetics |  | pH 7.4, 25 °C |  | kcat | 0.0267 ± 0.00167 s⁻¹ |
| B3 (DTYMK) | Cc1cn([C@H]2C[C@H](O)[C@@H](COP(=O)(O)O)O2)c(=O)[nH]c1=O | steady-state kinetics |  | with: ATP 2 mM, Mg2+ 2 mM |  | kcat | 3 ± 0.1 s⁻¹ |
| TENT2 (Homo sapiens, UniProt Q6PIY7) | O=c1ccn([C@@H]2O[C@H](COP(=O)(O)OP(=O)(O)OP(=O)(O)O)[C@@H](O)[C@H]2O)c(=O)[nH]1 | steady-state kinetics |  | pH 8, 37 °C |  | kcat | 0.000248 ± 1.17e-05 s⁻¹ |
| CCTCTTCCCTCACCTCTTCTTGACCTCATTCGTACCCATTGACCTTCGCAACCACCTGCGAAGGTCAATGGGTACGAATGAGGT (hairpin DNA; hairpin, 5' overhang, dG-C8-FABP 22, 3' ddT) | polA D424A | SPR |  | with: dCTP 100 µM |  | Kd | 0.3 ± 0.03 nM |
| AAAAAGAA (ssRNA) | lin28b 125-175 (Xenopus tropicalis, UniProt B4F6I0) | ITC | RNA |  |  | Kd | 11900 ± 2200 nM |
| B4 (genB3) | CN[C@@H]1[C@@H](O)[C@@H](O[C@@H]2[C@@H](O)[C@H](O[C@H]3O[C@H](CN)[C@@H](O)[C@H](OP(=O)(O)O)[C@H]3N)[C@@H](N)C[C@H]2N)OC[C@]1(C)O | steady-state kinetics |  | 30 °C |  | kcat | 0.0297 ± 0.000333 s⁻¹ |
| GACAUGGUCCGGUAGUUCAGUUGGUUAGAAUGCCUGCCUGUCACGCAGGAGGUCGCGGGUUCGAGUCCCGUCCGGACCG (tRNA (Bacillus subtilis); 5'-GMPS, tRNA fold) | PRORP1 77-572 Y133A (Arabidopsis thaliana, UniProt Q66GI4) | fluorescence anisotropy | folded RNA | NaCl 1 M | reference: wild-type target | binding free energy loss | 1.6 kcal/mol |
| B5 (PPIP5K2) | O=P(O)(O)O[C@@H]1[C@@H](OP(=O)(O)O)[C@@H](OP(=O)(O)O)[C@@H](OP(=O)(O)OP(=O)(O)O)[C@H](OP(=O)(O)O)[C@H]1OP(=O)(O)O | steady-state kinetics |  |  |  | kcat | 0.002 s⁻¹ |
| B6 (enzyme) | Cc1c(N)nc([C@H](CC(N)=O)NC[C@H](N)C(N)=O)nc1C(=O)N[C@H](C(=O)N[C@H](C)[C@@H](O)[C@H](C)C(=O)N[C@H](C(=O)NCCc1nc(-c2nc(C(=O)NCCCCNC(=N)N)cs2)cs1)[C@@H](C)O)[C@@H](O[C@@H]1O[C@@H](CO)[C@@H](O)[C@H](O)[C@@H]1O[C@H]1O[C@H](CO)[C@@H](O)[C@H](OC(N)=O)[C@@H]1O)c1c[nH]cn1 | steady-state kinetics |  | pH 7.5, 30 °C |  | kcat | 0.2 ± 0.0333 s⁻¹ |
| CCTCTTCCCTCACCTCTTCTTGACCTCATTCGTACCCATTGACCTTCGCAACCACCTGCGAAGGTCAATGGGTACGAATGAGGT (hairpin DNA; hairpin, 5' overhang, 3' ddT) | polA D424A | SPR |  | with: dCTP 100 µM |  | Kd | 0.09 ± 0.08 nM |
| B7 (curN) | CC1=[N+]2C(=C(CCl)c3ccc(C)n3[B-]2(F)F)C=C1 | steady-state kinetics |  | pH 8, 30 °C |  | kcat | 2.9 ± 0.6 s⁻¹ |

A few entries again:
| Substance | target or system | test | test system | setting | scale | measurement | value |
| --- | --- | --- | --- | --- | --- | --- | --- |
| GACAUGGUCCGGUAGUUCAGUUGGUUAGAAUGCCUGCCUGUCACGCAGGAGGUCGCGGGUUCGAGUCCCGUCCGGACCG (tRNA (Bacillus subtilis); 5'-GMPS, tRNA fold) | PRORP1 77-572 Y133A (Arabidopsis thaliana, UniProt Q66GI4) | fluorescence anisotropy | folded RNA | NaCl 1 M | reference: wild-type target | binding free energy loss | 1.6 kcal/mol |
